Measurements gathered from unrelated publications.
Protocols differ between the studies behind these lines. ± gives the spread as reported.

`[99Tc+].[C-]#[N+]CC(C)(C)OC.[C-]#[N+]CC(C)(C)OC.[C-]#[N+]CC(C)(C)OC.[C-]#[N+]CC(C)(C)OC.[C-]#[N+]CC(C)(C)OC.[C-]#[N+]CC(C)(C)OC` gave a basolateral efflux of 64 ± 4.2% (human sandwich-cultured hepatocytes; 20 min, culture day 7; baseline: preloaded amount).
`N#Cc1ccc(-c2ccc(-c3ccco3)o2)nc1` has a viability of 101 ± 9.7% (Salmonella typhimurium; liquid broth OD; TA1535; 100 µM, 15 h; baseline: growth).
With `Cc1cc(/C=C/C#N)cc(C)c1Oc1nc(NC2CCN(Cc3ccc(C(N)=O)cc3)CC2)nc2ccccc12` the selectivity index was 8660 (HIV-1; TZM-bl, NL4-3 wild type; baseline: CC50 over EC50).
For `CC(=O)N[C@H](C(=O)N[C@H](C(=O)N[C@@H](CCCNC(=N)N)C(=O)N1Cc2ccccc2C[C@H]1C(=O)N[C@@H](Cc1ccccc1)C(N)=O)C1CCCCC1)C(C)C`, the cytokine level was 125 ± 58.3 pg/mL (human PBMC; Bio-Plex multiplex, item: VEGF; 500 µg/mL, 24 h).
With `C=CCC1=C[C@@]2(C[C@@H](O)C(C)(C)O2)C2=C(C[C@H]3C[C@@H]4[C@@H](C[C@@]3(C)O2)C(=C)CCCC4(C)C)C1=O` the selectivity index was 1.7 (coxsackievirus B3; cytopathic effect; Vero, Nancy; baseline: CC50 over IC50).
The viability of `N=C(N)c1ccc(-c2ccc(-c3ccco3)o2)nc1` is reported as 124 ± 7.7% (Salmonella typhimurium; liquid broth OD; TA1535; 12.5 µM, 15 h; baseline: growth).
With `C=CCC1=C[C@]2(C[C@H](O)C(C)(C)O2)C2=C(C[C@@H]3C[C@H]4C(=C)CCCC(C)(C)[C@@H]4C[C@]3(C)O2)C1=O` the selectivity index was 2.6 (coxsackievirus B3; cytopathic effect; Vero, Nancy; baseline: CC50 over IC50).
`Cc1cc(C#N)cc(C)c1Oc1nc(NC2CCN(Cc3ccc(S(N)(=O)=O)cc3)CC2)nc2ncccc12` gave a selectivity index of 25800 (HIV-1; TZM-bl, NL4-3 wild type; baseline: CC50 over EC50).
For `N=C(N)c1ccc(-c2ccc(-c3cccs3)o2)nc1`, the viability was 112 ± 5% (Salmonella typhimurium; liquid broth OD; TA1535; 12.5 µM, 15 h; baseline: growth).
`[64Cu+2].c1ccc(CNCc2ccc(CN3CCCN4CCNCCCN(CC4)CC3)cc2)nc1` gave a tissue uptake of 4.63 ± 1.16 %ID/g (CXCR4 (human); NOD/SCID mice, U87 xenografts, small intestine; 90 min post-injection).
`N#Cc1ccc(-c2ccc(-c3ccco3)o2)cc1` gave a viability of 100 ± 10.1% (Salmonella typhimurium; liquid broth OD; TA1535; 12.5 µM, 15 h; baseline: growth).
For `[64Cu+2].c1cnc(CNCc2ccc(CN3CCCN4CCNCCCN(CC4)CC3)cc2)nc1`, the tissue uptake was 5.67 ± 0.3 %ID/g (CXCR4 (human); NOD/SCID mice, U87 xenografts, U87 control tumour; 60 min post-injection).
`N#Cc1ccc(-c2ccc(-c3cccs3)o2)cc1` gave a viability of 100 ± 8.6% (Salmonella typhimurium; liquid broth OD; TA1535; 25 µM, 15 h; baseline: growth).
Under “subjects with TEAE”, `Cn1c(=O)oc2ccc(-c3ccc(CC(C#N)NC(=O)C4CNCCCO4)c(F)c3)cc21` (stereo not drawn) is recorded as 0% (item: total protein decreased; human; 60 mg single dose, fasted).
`N=C(N)c1ccc(-c2ccc(-c3cccs3)o2)cc1` has a viability of 103 ± 5.2% (Salmonella typhimurium; liquid broth OD; TA1535; 50 µM, 15 h; baseline: growth).
`CCCC[C@H](NC(C)=O)C(=O)N[C@H]1CC(=O)NCCCC[C@@H](C(=O)N[C@@H](C(=O)N2CCC[C@@H]2C(N)=O)C(C)C)NC(=O)[C@H](Cc2c[nH]c3ccccc23)NC(=O)[C@H](CCCN=C(N)N)NC(=O)[C@@H](Cc2ccc3ccccc3c2)NC(=O)[C@@H]2CCCN2C1=O` has an AUC of 11600 ± 1500 ng·h/mL (Beagle dog, both sexes, plasma; subcutaneous, once daily, 0.75 mg/kg, day 5).
`N#Cc1cc(C(=O)OCC[18F])c(C(F)(F)F)nc1N1CCC(C(=O)NS(=O)(=O)c2ccc(Cl)s2)CC1` gave a permeability of 17.2% (bEnd.3 monolayer transwell; concentration not given, added: verapamil 1.0 µg).
With `N=C(N)c1ccc(-c2ccc(-c3ccco3)o2)cc1` the viability was 46.5 ± 3.4% (Salmonella typhimurium; liquid broth OD; TA1535; 50 µM, 15 h; baseline: growth).
For `Cc1cc(C#N)cc(C)c1Oc1nc(NC2CCN(Cc3ccccc3Br)CC2)nc2ccccc12`, the selectivity index was greater than 6.81 (HIV-1; TZM-bl, NL4-3 wild type; baseline: CC50 over EC50).
The tracer uptake of `O=C(O)CCC(NP(=O)(O)OCCC[C@@H](NC(=O)CC[C@H](NC(=O)CCCCCNC(=O)c1ccc([18F])cc1)C(=O)O)C(=O)O)C(=O)O` (stereo partly drawn) is reported as 0.311 %ID/g (CWR22Rv1 tumour model; host not given, heart; 1 h, tumour-bearing).
With `Cc1cc(C#N)cc(C)c1Oc1nc(NC2CCN(Cc3ccc(Cl)cc3)CC2)nc2ccccc12` the selectivity index was greater than 8.66 (HIV-1; TZM-bl, NL4-3 wild type; baseline: CC50 over EC50).
For `CC(C)CCC[C@@H](C)[C@H]1CCC([C@@H]2CC[C@H]3C[C@@H](O)CC[C@]3(C)[C@@H]2O)[C@]1(C)CC(=O)O` (stereo partly drawn), the viability was greater than 100% (HEK293T; CellTiter-Blue; 10 µM).
With `Cc1cc(C#N)cc(C)c1Oc1nc(NC2CCN(Cc3ccc(S(N)(=O)=O)cc3)CC2)nc2cccnc12` the selectivity index was 10000 (HIV-1; TZM-bl, NL4-3 wild type; baseline: CC50 over EC50).
The viability of `N#Cc1ccc(-c2ccc(-c3cccs3)o2)nc1` is reported as 127 ± 5.4% (Salmonella typhimurium; liquid broth OD; TA1535; 50 µM, 15 h; baseline: growth).
